Published values gathered from unrelated publications.
Lines come from different studies, so protocols differ. Values after ≈ are worked out from the molar mass of the structure shown.

Under “log2 fold change”, `COC1CN([C@H]2CC[C@H]([C@@]3(C)Oc4c(Cl)cc(C(=O)NCc5c(SC)cc(C)[nH]c5=O)c(C)c4O3)CC2)C1` is recorded as 0.397 (RNA-seq, refers to: PPM1E mouse homolog; mouse, HT-1376 xenograft, whole blood; dose not given; relative to: vehicle).
For `Nc1ncc(-c2cc(-c3cnn(CC(F)(F)F)c3)ncc2F)nc1C(=O)NC1CNCC(F)C1` (stereo not shown), the remaining binding was 100% (YANK2; KINOMEscan; 1 µM; relative to: DMSO control).
`Cc1c(CN(C)C(=O)/C=C/c2cnc3c(c2)CC(N)C(=O)N3)oc2ccccc12` (stereo not shown) has an MIC of 8 µg/mL (≈ 20.5 µM) (Klebsiella pneumoniae; broth microdilution; S47889).
For `N=C(N)NCCC[C@@H]1NC(=O)[C@H](CCCNC(=N)N)NC(=O)[C@H](CCCNC(=N)N)NC(=O)[C@@H](CCCNC(=N)N)NC(=O)[C@H](Cc2ccc3ccccc3c2)NC(=O)[C@H](Cc2ccc3ccccc3c2)NC(=O)[C@H](Cc2ccc3ccccc3c2)NC1=O`, the MIC was 2 µg/mL (≈ 1.64 µM) (Blastomyces dermatitidis; BD-2).
The MIC of `C[C@@H]1C(=O)O[C@@H](C)/C=C/C=C\[C@@H](C)[C@@H]2C=C[C@@H]3C[C@@]4(C)O[C@H]4[C@@H](C)[C@H]3[C@@H]2C(=O)C(Cl)(Cl)C1=O` is reported as 0.05 µg/mL (≈ 0.101 µM) (Staphylococcus aureus; MSSA clinical isolate; resistant PEN/CLI/SXT/TET).
`C=CC(=O)Nc1cccc(Cn2ncc3cnc(Nc4cnn(CCOC)c4)nc32)c1`: “percent of control” 63% (ULK1 human; binding, KINOMEscan; 100 nM; lower = stronger binding).
`N=C(N)NCCC[C@@H]1NC(=O)[C@@H](CCCNC(=N)N)NC(=O)[C@H](CCCNC(=N)N)NC(=O)[C@@H](C(c2ccccc2)c2ccccc2)NC(=O)[C@@H](C(c2ccccc2)c2ccccc2)NC(=O)[C@@H](C(c2ccccc2)c2ccccc2)NC(=O)[C@@H](CCCNC(=N)N)NC1=O` gave an MIC of 2 µg/mL (≈ 1.54 µM) (Blastomyces dermatitidis; BD-3).
`COC1C=COC2(C)Oc3c(C)c(O)c4c(c3C2=O)C2=NC3(CCN(CC(C)C)CC3)NC2=C(NC(=O)C(C)=CC=CC(C)C(O)C(C)C(O)C(C)C(OC(=O)c2cccnc2)C1C)C4=O` (stereo not shown) has an MIC of 140 µg/mL (≈ 154 µM) (Mycobacteroides abscessus; ATCC 19977; single-strain MIC).
For `CC1(C)[C@H](NC(=O)/C(=N\OCc2cc(=O)c(O)cn2O)c2csc(N)n2)C(=O)N1OS(=O)(=O)O`, the MIC was 0.125 µg/mL (≈ 0.241 µM) (Serratia marcescens; agar dilution; ATCC 21074 susceptible).
With `CC1C=CC=CC(C)C2C=CC3CC(C)(O)C(Cl)C(C)C3C2C(=O)C(Cl)(Cl)C(=O)C(C)C(=O)O1` (stereo not shown) the MIC was 0.2 µg/mL (≈ 0.376 µM) (Staphylococcus aureus; MRSA clinical isolate; resistant: OXA,CLI,DOX,ERY,TET,TOB).
`C=C(NC(=O)c1csc(-c2nc3c(cc2O)-c2nc(cs2)C(=O)NC(C(C)O)C(=O)NC(=C(C)OC)c2nc(cs2)C(=O)NC2c4nc(cs4)C(=O)NC(COC(=O)c4c5c6c(cccc6n4O)COC(=O)C(OC4CC(C)(O)C(N(C)C)C(C)O4)C2OC5)c2nc-3cs2)n1)C(N)=O` (stereo not shown) has an MIC of 0.0039 µg/mL (≈ 0.00271 µM) (Streptococcus pneumoniae; microbial growth; PRSP).
`CC[C@H](C)[C@H](NC(=O)[C@H](CCCNC(=N)N)NC(=O)[C@H]1CCCN1C(=O)[C@H](Cc1ccc(O)cc1)NC(=O)[C@@H](NC(=O)[C@@H](NC(=O)[C@H](CCCNC(=N)N)NC(=O)[C@H](Cc1ccccc1)NC(=O)[C@@H](NC(=O)[C@H](Cc1c[nH]c2ccccc12)NC(=O)[C@H](Cc1c[nH]c2ccccc12)NC(C)=O)C(C)C)C(C)C)C(C)C)C(=O)N[C@H](C(=O)N[C@@H](Cc1ccc(O)cc1)C(=O)N[C@@H](CCCNC(=N)N)C(=O)N[C@@H](CCCNC(=N)N)C(=O)N[C@H](C(=O)N[C@@H](CCCNC(=N)N)C(=O)N[C@@H](Cc1c[nH]c2ccccc12)C(=O)N[C@H](C(=O)NCC(=O)N1CCC[C@H]1C(=O)N[C@@H](CCCCN)C(=O)N[C@@H](CCCCN)C(N)=O)[C@@H](C)O)C(C)C)C(C)C`: MIC “inactive” (Corynebacterium glutamicum; ATCC 13032; 37 °C).
With `COc1ccc(NC(=O)COc2cccc(OCC(C)C)c2)cc1` the MIC was 4 µg/mL (≈ 12.1 µM) (Clavispora lusitaniae; microbial growth, broth dilution; MY1396).
`CNS(=O)(=O)Nc1nccc(Cc2c(C)c3ccc(Oc4ncccc4F)cc3oc2=O)c1F` has an IC50 of over 1000 nM (U-2940; cell viability; 7 days).
The MIC of `CC1(C)C(NC(=O)C(=NOC2(C(=O)O)CCC2)c2csc(N)n2)C(=O)N1OS(=O)(=O)O` (stereo not shown) is reported as 0.25 µg/mL (≈ 0.524 µM) (Serratia marcescens; agar dilution; ATCC 21074, susceptible).
`O=C(Nc1cnccc1-c1ccc([18F])nc1)c1ccnc(NC(=O)C2CC2)c1` gave a median SUV of 6.02 (PET imaging; FVB/NJ mice, both sexes, liver; intravenous, 120 min).
`CC1(C)[C@H](NC(=O)/C(=N\OCC(=O)N2CCC[C@@H]2C(=O)O)c2nsc(N)n2)C(=O)N1OS(=O)(=O)O` has an MIC of 1 µg/mL (≈ 1.87 µM) (Serratia marcescens; agar dilution; ATCC 21074, susceptible).
The inhibition of `CC(=O)[O-].O.[Cu+2].[O-]c1ccc(Br)cc1C=NCCN1CCOCC1` is reported as 52.4% (DPPH radical scavenging; 160 µM).
For `C=CCO/N=C(\C(=O)N[C@@H]1C(=O)N(OS(=O)(=O)O)C1(C)C)c1csc(N)n1`, the MIC was 1 µg/mL (≈ 2.38 µM) (Serratia marcescens; agar dilution; ATCC 21074, susceptible).
`N=C(N)NCCC[C@@H]1NC(=O)[C@H](CCCNC(=N)N)NC(=O)[C@@H](CCCNC(=N)N)NC(=O)[C@@H](CCCNC(=N)N)NC(=O)[C@@H](C(c2ccccc2)c2ccccc2)NC(=O)[C@@H](Cc2c[nH]c3ccccc23)NC(=O)[C@@H](C(c2ccccc2)c2ccccc2)NC1=O` gave an MIC of 2 µg/mL (≈ 1.59 µM) (Blastomyces dermatitidis; BD-2).
For `Cc1ncsc1-c1ccc(C(C)NC(=O)C2CC(O)CN2C(=O)C(NC(=O)CCCCCCCCCCN2CCCC(Nc3ncc(Cl)c(Nc4ccccc4S(=O)(=O)C(C)C)n3)C2)C(C)(C)C)cc1` (stereo not shown), “log2 fold change” read -2.4 (22Rv1; RNA-seq, refers to: ZNF382 mRNA; concentration not given; relative to: DMSO).
With `CC1(C)[C@H](NC(=O)/C(=N\OCCN)c2csc(N)n2)C(=O)N1OS(=O)(=O)O` the MIC was 1 µg/mL (≈ 2.37 µM) (Serratia marcescens; agar dilution; ATCC 21074, susceptible).

Repeated from above:
For `Nc1ncc(-c2cc(-c3cnn(CC(F)(F)F)c3)ncc2F)nc1C(=O)NC1CNCC(F)C1` (stereo not shown), the remaining binding was 100% (YANK2; KINOMEscan; 1 µM; relative to: DMSO control).
`O=C(Nc1cnccc1-c1ccc([18F])nc1)c1ccnc(NC(=O)C2CC2)c1` gave a median SUV of 6.02 (PET imaging; FVB/NJ mice, both sexes, liver; intravenous, 120 min).
